Experimental data collected from several papers.
Compare with care: the assays were run in different laboratories.

`NS(=O)(=O)c1cc2c(cc1Cl)N=C(CSCc1ccccc1)NS2(=O)=O` has an inhibition of 93% (Nedd8-cullin1 interaction; neddylation, AlphaScreen; 100 µM).
`O=C(O)c1ccc(NCc2cccc([N+](=O)[O-])c2)cc1` has an MIC of 64 µg/mL (Salmonella enterica).
With `COc1cc(Cc2cnc(N)nc2N)cc(OC)c1OC` the MIC was greater than 128 µg/mL (Salmonella enterica; 20 h, pH 5.5).
`O=C(O)c1cn(C2CC2)c2cc(N3CCNCC3)c(F)cc2c1=O` has an MIC of 16 µg/mL (Salmonella enterica; broth microdilution; Kentucky, resistant).
The MIC of `OC(Cn1cncn1)(Cn1cncn1)c1ccc(F)cc1F` is reported as greater than 128 µM (Zygosaccharomyces bailii; broth microdilution; MYA-4549, Sabouraud dextrose broth; 72 h).
The MIC of `OC(Cn1cncn1)(Cn1cncn1)c1ccc(F)cc1F` is reported as 2 µg/mL (Candida tropicalis; CT2).
The MIC of `O=C(O)c1ccc(NCc2cc(Br)ccc2O)cc1` is reported as 128 µg/mL (Salmonella enterica).
`N=C(N)c1ccc(OCc2cccc(COc3ccc(C(=N)N)cc3)c2)cc1` gave an MIC of greater than 200 µg/mL (Escherichia coli; BW25113; compound alone, novobiocin checkerboard).
`CC(=O)NC[C@H]1CN(c2ccc(N3CCOCC3)c(F)c2)C(=O)O1` has an MIC of less than 2.96 µM (Bifidobacterium adolescentis; HM-633).
`N=C(N)c1ccc(OCCCCCOc2ccc(C(=N)N)cc2)cc1` has an MIC of greater than 200 µg/mL (Escherichia coli; mcr-3 polymyxin-resistant; compound alone).
For `NNC(=O)c1ccncc1`, the MIC was 40 µM (Mycobacterium marinum).
With `C=CC(=O)ON=C1C=CC(=C(C#N)c2ccccc2)C=C1` the MIC was 16 µg/mL (Kluyveromyces marxianus; broth dilution; ATCC 204093; 48 h, 37 °C).
`O=C(O)c1ccc(NCc2cccc(O)c2)cc1` has an MIC of 64 µg/mL (Salmonella enterica).
For `OC(Cn1cncn1)(Cn1cncn1)c1ccc(F)cc1F`, the MIC was 2 µg/mL (Candida albicans; broth microdilution; 45; 24 h, compound alone).
With `N#CC(=C1C=CC(=NOC(=O)c2ccccc2)C=C1)c1ccccc1` the MIC was 128 µg/mL (Kluyveromyces marxianus; broth dilution; ATCC 204093; 48 h, 37 °C).
With `CC1(C)SC2C(NC(=O)C(NC(=O)C3=C(O)C(Cc4ccccc4)NC3=O)c3ccccc3)C(=O)N2C1C(=O)O` (stereo not drawn) the MIC was 6.25 µg/mL (Escherichia coli; broth microdilution; ATCC 25922 wild type; no clavulanic acid).
With `CCON=C1C=CC(=C(C#N)c2ccccc2)C=C1` the MIC was 256 µg/mL (Kluyveromyces marxianus; broth dilution; ATCC 204093; 48 h, 37 °C).
For `COc1cccc(CNc2ccc(C(=O)O)cc2)c1OC`, the MIC was 64 µg/mL (Salmonella enterica).
The MIC of `CC1(C)SC2C(NC(=O)C(NC(=O)C3=C(O)CNC3=O)c3ccccc3)C(=O)N2C1C(=O)O` (stereo not drawn) is reported as 12.5 µg/mL (Escherichia coli; broth microdilution; ATCC 25922 wild type; added: clavulanic acid 6 µg/mL).
For `OC(Cn1cncn1)(Cn1cncn1)c1ccc(F)cc1F`, the MIC was greater than 400 µM (Candida tropicalis; broth microdilution; CT-Q-2; 24 h).
`CC(=O)ON=C1C=CC(=C(C#N)c2ccccc2)C=C1` has an MIC of 16 µg/mL (Kluyveromyces marxianus; broth dilution; ATCC 204093; 48 h, 37 °C).
`N=C(N)c1ccc(OCCC(CCOc2ccc(C(=N)N)cc2)c2ccccc2)cc1` (stereo not drawn) gave an MIC of greater than 200 µg/mL (Escherichia coli; BW25113; compound alone, novobiocin checkerboard).
The MIC of `COc1cccc(CNc2ccc(C(=O)O)cc2)c1` is reported as 64 µg/mL (Salmonella enterica).
With `CN1C2=CC(=O)/C(=N\NC(N)=O)C=C2CC1S(=O)(=O)[O-].[Na+]` (stereo not drawn) the inhibition was -35.8% (Nedd8-cullin1 interaction; neddylation, AlphaScreen; 100 µM).
For `CN(C)c1ccc(CNc2ccc(C(=O)O)cc2)cc1`, the MIC was 64 µg/mL (Salmonella enterica).
With `CNC(C)C1CCC(N)C(OC2C(N)CC(N)C(OC3OCC(C)(O)C(NC)C3O)C2O)O1` (stereo not drawn) the MIC was 1 µg/mL (Pseudomonas aeruginosa; clinical isolate RKI-No_579/15).
For `C=C1C(=O)O[C@@H](CCCCCCCCCCCCC)[C@@H]1C(=O)O`, the MIC was 32 µg/mL (Candida tropicalis; CT2).

Repeated from above:
The MIC of `O=C(O)c1ccc(NCc2cc(Br)ccc2O)cc1` is reported as 128 µg/mL (Salmonella enterica).
`N=C(N)c1ccc(OCc2cccc(COc3ccc(C(=N)N)cc3)c2)cc1` gave an MIC of greater than 200 µg/mL (Escherichia coli; BW25113; compound alone, novobiocin checkerboard).
`CC(=O)NC[C@H]1CN(c2ccc(N3CCOCC3)c(F)c2)C(=O)O1` has an MIC of less than 2.96 µM (Bifidobacterium adolescentis; HM-633).
